Experimental data pooled from the literature.
A part holds a random share of what one study measured.

Block 1
Target: Interferon regulatory factor 7, full length, phosphomimetic (IRF7, Homo sapiens, UniProt Q92985, residues 1-503, S471D/S472D/S475D/S476D/S477D/S483D/S484D/S487D)
Chain of UniProt Q92985 (whole entry, unmodified, looked up): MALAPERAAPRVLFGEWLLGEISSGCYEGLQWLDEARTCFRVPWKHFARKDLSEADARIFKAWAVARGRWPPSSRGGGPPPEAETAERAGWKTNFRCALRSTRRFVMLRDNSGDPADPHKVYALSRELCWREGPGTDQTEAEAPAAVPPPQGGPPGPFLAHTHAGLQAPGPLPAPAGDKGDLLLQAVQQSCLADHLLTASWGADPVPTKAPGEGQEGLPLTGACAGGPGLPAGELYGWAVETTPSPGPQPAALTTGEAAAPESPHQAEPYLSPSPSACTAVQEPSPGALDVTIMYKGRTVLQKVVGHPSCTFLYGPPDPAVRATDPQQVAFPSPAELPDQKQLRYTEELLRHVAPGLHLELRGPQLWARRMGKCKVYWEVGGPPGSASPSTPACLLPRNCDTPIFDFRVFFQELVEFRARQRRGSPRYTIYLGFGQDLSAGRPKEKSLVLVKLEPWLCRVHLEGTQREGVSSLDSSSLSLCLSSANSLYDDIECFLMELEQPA
Technique: protein-binding microarray
Form: double-stranded DNA, one strand shown
Medium: in vitro
Concentration: 2200 nM top
Setting: 60-bp whole probe
Together with: salmon DNA 0.4 mg/ml
Reference: random background probes
Reading: higher = stronger binding
`GCCTAGCACTTAGGTTTCGGTCGCGGTTAGTGCTAGGTCTTGATTCGCTTGACGCTGCTG` — result for “fitted relative affinity”: 3.95 z-score.
Under “fitted relative affinity”, `GCCTAGCACGACGGACTGGGTATCGGGGCGTGCTAGGTCTTGATTCGCTTGACGCTGCTG` is recorded as -0.816 z-score.
`GCCTAGCACCTTCCCCTCTCATTCCAATTGTGCTAGGTCTTGATTCGCTTGACGCTGCTG`: “fitted relative affinity” 2.16 z-score.
Under “fitted relative affinity”, `GCCTAGCACTTACATTTCAGTATCGATTAGTGCTAGGTCTTGATTCGCTTGACGCTGCTG` is recorded as 2.21 z-score.

Block 2
Target: Histone acetyltransferase KAT6A, winged helix 1, GST fusion (KAT6A, Homo sapiens, UniProt Q92794, residues 1-85)
Technique: protein binding microarray
Form: double-stranded DNA, one strand shown
Medium: in vitro
Concentration: not given
Setting: 8-mer, flanks averaged, mean of 2 arrays, mostly near background
Reference: not given
Reading: higher = stronger binding
Residues (chain): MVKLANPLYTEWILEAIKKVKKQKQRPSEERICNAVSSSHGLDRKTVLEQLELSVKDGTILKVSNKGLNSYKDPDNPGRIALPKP
The E-score of `CTGGTTGA` is reported as -0.4.
`ATGTCTTG` gave an E-score of -0.0141.
For `GCCCGAGA`, the E-score was 0.0772.

Block 3
Target: Prothrombin, mature alpha-thrombin (F2, Homo sapiens, UniProt P00734)
Technique: aptamer microarray, sandwich
Form: DNA with 2'F-ANA
Medium: in vitro
Concentration: 200 nM
Setting: whole 15-mer aptamer, many near background
Together with: Cy3 exosite-II aptamer, 400 nM
Reading: higher = stronger binding
Strand: GGTTGGTGTGGTTGG
`2'F-ANA at 1 5 7 8 9 10 14`: “mean fluorescence intensity” 46 a.u.
For `2'F-ANA at 2 6 10 15`, “mean fluorescence intensity” read 111 a.u.
Under “mean fluorescence intensity”, `2'F-ANA at 1 2 4 5 6 9 11` is recorded as 64.6 a.u.
`2'F-ANA at 3 4 5 6 7 8 9 10 11 13` — result for “mean fluorescence intensity”: 50.3 a.u.
For `2'F-ANA at 1 2 3 6 7 8 10 11 15`, “mean fluorescence intensity” read 66.8 a.u.

Further values, each from its own experiment
The fold induction of `PhoQ, residues 284 288 289 292 302 303 ALVSVA` is reported as 2.97 (PhoP, residues 12 14 15 18 19 NMSSL (Escherichia coli, UniProt P23836); Sort-seq, measured: YFP reporter; E. coli; PhoQ-PhoP variant library, together with: 10 µM Mg2+; reference: high Mg2+ state, higher = stronger signaling).

For quick reference, copied from above (block 3):
`2'F-ANA at 3 4 5 6 7 8 9 10 11 13` — result for “mean fluorescence intensity”: 50.3 a.u.
For `2'F-ANA at 1 2 3 6 7 8 10 11 15`, “mean fluorescence intensity” read 66.8 a.u.
